Experimental data from different studies.
Every numbered part comes from another study and shows a few of its results, in no order.

Set 1
Target: Sal-like protein 4, full length isoform A (SALL4, Homo sapiens, UniProt Q9UJQ4, residues 1-1053)
Sequence of UniProt Q9UJQ4 (whole entry, looked up): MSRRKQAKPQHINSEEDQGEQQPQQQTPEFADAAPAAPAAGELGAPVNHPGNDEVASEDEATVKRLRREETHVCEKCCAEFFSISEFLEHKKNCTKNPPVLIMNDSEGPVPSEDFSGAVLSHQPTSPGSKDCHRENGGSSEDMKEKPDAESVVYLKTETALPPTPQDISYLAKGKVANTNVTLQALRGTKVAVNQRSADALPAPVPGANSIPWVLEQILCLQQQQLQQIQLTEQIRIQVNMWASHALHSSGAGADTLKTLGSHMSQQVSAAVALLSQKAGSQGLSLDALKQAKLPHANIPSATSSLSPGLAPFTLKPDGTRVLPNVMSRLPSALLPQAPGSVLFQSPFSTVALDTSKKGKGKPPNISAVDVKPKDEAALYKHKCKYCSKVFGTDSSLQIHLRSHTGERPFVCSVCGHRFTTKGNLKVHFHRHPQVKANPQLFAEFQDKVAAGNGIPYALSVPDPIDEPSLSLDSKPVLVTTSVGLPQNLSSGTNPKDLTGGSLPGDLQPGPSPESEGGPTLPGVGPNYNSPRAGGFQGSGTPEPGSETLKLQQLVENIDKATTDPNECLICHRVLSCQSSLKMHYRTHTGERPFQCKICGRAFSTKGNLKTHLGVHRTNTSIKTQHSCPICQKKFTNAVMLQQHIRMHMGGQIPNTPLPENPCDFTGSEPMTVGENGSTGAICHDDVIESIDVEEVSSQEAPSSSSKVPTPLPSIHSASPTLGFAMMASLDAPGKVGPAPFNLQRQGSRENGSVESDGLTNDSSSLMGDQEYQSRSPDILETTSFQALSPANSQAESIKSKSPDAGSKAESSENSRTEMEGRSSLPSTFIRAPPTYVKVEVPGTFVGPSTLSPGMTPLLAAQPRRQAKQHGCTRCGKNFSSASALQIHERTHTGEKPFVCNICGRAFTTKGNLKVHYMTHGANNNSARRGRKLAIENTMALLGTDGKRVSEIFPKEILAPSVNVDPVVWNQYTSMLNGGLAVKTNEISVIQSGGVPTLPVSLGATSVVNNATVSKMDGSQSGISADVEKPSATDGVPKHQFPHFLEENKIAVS
Method: universal PBM
Form: double-stranded DNA, one strand shown
Sample: in vitro
Tested at: 600 nM
Notes: 8-mer, flanks averaged, mean of replicates
Reading: higher = stronger binding
Oligonucleotide	E-score
AACGCTCG	-0.113
AATATGCC	0.161
CAGAATTC	0.186
GCTCAGCC	-0.316
CTTATGTA	0.323
AGAAACAT	0.286
ATCTGTTA	0.219
GAGTGCGA	-0.116
CACTTTTA	0.19
CGAAAACC	0.00809
AATTTTGT	0.312
CCAGTGCA	-0.186
CTCTACGA	0.0334
CCTTCCTC	-0.179
AGTCTAAT	0.196
CATTAGGA	0.143
GCCTCCGC	-0.368
ACCTTTTA	0.0623
AGATTCCT	-0.00412
AATAACAA	0.36
CGAATGGC	-0.0183
TATACAAA	0.354
GTAGCGGA	0.0511
GTTAAAAC	0.144
CCAGCTAC	-0.158

Set 2
Target: Ras GTPase-activating protein-binding protein 1, full length (G3BP1, Homo sapiens, UniProt Q13283)
Sequence of UniProt Q13283 (whole entry, looked up): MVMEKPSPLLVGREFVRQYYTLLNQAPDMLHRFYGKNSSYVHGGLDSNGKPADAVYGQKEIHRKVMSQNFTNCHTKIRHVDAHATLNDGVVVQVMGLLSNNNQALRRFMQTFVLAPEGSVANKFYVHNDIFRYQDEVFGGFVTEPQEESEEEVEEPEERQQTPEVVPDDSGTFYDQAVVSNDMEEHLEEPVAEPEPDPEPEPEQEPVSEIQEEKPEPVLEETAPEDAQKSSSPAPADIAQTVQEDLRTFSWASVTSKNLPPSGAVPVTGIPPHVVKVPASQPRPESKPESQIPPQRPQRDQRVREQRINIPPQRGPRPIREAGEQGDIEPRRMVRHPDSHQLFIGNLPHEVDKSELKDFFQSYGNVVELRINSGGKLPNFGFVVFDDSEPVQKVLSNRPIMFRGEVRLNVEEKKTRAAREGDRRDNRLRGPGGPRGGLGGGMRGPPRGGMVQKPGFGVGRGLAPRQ
Method: RNA Bind-n-Seq
Form: RNA
Sample: in vitro
Tested at: 200 nM
Notes: whole 134-nt RNA, ends assumed
Together with: 150 mM KCl
Baseline: input library
Reading: higher = stronger binding
Constant ends, left off below: GGGAGUUCUACAGUCCGACGAUC … UGGAAUUCUCGGGUGUCAAGG
Oligonucleotide	log2 enrichment
CACAGACAACACGCACCCACACAGACACAGAGGGAGGGGGUUGGGAUGGGGACAGGGUGCACAGCAGGGCGGGGUAGGACCCCAGCCCCU	1.66
UCCUCAAGUCCUGUGCUACACAUCGUAUGUACCGAAUCGGCGGCGGGGCGGAAAGUAUUAUGUUACGCCGUUCGGAUCUGCACUUCCAGC	-0.285
AGUCCUGUGCUACACAUCGUAUGUACCGAAUCGGGAAAAAGGGAAAAAGGAAAAAGGGAAAGUAUUAUGUUACGCCGUUCGGAUCUGCAC	-0.902
CCUCAAGUCCUGUGCUACACAUCGUAUGUACCGAAUCGGCCGGCCGGCCGGGAAAGUAUUAUGUUACGCCGUUCGGAUCUGCACUUCCAG	0.451
UAACUUCAGAGGAGGAUCUGAUGGAUAUGGCAGUGGACGUGGAUUUGGGGAUGGCUAUAAUGGGUAUGGAGGAGGACCUGGAGGUGGCAA	0.364
CAAGUCCUGUGCUACACAUCGUAUGUACCGAAUCGGGGAAAGGAAAGGGGAAAGGGAAAGUAUUAUGUUACGCCGUUCGGAUCUGCACUU	0.364
UCAAGUCCUGUGCUACACAUCGUAUGUACCGAAUCGGGCCGGGGCCGGGGCCGGGAAAGUAUUAUGUUACGCCGUUCGGAUCUGCACUUC	-0.796
CAAGUCCUGUGCUACACAUCGUAUGUACCGAAUCGGUGGUUUUUUUGGAAAAAGGAAAGUAUUAUGUUACGCCGUUCGGAUCUGCACUUC	-0.883
AGUCCUGUGCUACACAUCGUAUGUACCGAAUCGGGGUUUUGGGGUUUUGGGUUUUGGGAAAGUAUUAUGUUACGCCGUUCGGAUCUGCAC	-0.0324

Set 3
Target: Prothrombin, mature alpha-thrombin (F2, Homo sapiens, UniProt P00734)
Method: aptamer microarray, sandwich
Form: DNA with 2'F-ANA
Sample: in vitro
Tested at: 200 nM
Notes: whole 15-mer aptamer, many near background
Together with: Cy3 exosite-II aptamer, 400 nM
Reading: higher = stronger binding
Oligonucleotide: GGTTGGTGTGGTTGG
Modification	mean fluorescence intensity [a.u.]
2'F-ANA at 1 2 3 5 8 9 12 13 14 15	51.2
2'F-ANA at 1 4 9 10 11 12 13 14	53.3
2'F-ANA at 3 4 8 9 13	521
2'F-ANA at 1 8 11 14	53.1
2'F-ANA at 2 3 5 7 9 12 13 14	60.8
2'F-ANA at 1 4 5 7 9 10 11 12 13 14 15	53.8
2'F-ANA at 6 7 8 9 11 13 15	371
2'F-ANA at 1 5 6 7 9 10 12 13 14	134
2'F-ANA at 1 2 3 9 10 12 14	57
2'F-ANA at 1 2 3 6 8 10 12 13 14	53.9
2'F-ANA at 1 2 4 6 10 11 12 13 14 15	50.6
2'F-ANA at 1 3 4 5 6 8 13	49.3
2'F-ANA at 1 3 6 7 8 11 12	441
2'F-ANA at 1 2 3 6 11 14 15	64.6
2'F-ANA at 1 2 3 4 6 7 8 9 13 15	115
2'F-ANA at 6 9 10 11	137
2'F-ANA at 1 3 5 7 10 11 12 13 15	104
2'F-ANA at 1 4 7 8 9 10 14 15	50

Set 4
Target: RNA binding protein fox-1 homolog 2, RRM domain, GST-SBP tag (RBFOX2, Homo sapiens, UniProt O43251-10, residues 100-194)
Method: RNA Bind-n-Seq
Form: RNA
Sample: in vitro
Tested at: 365 nM
Notes: natural RNA segment, single round, ends assumed
Baseline: no-protein control
Reading: higher = stronger binding
Constant ends, left off below: GGGAGUUCUACAGUCCGACGAUC … UGGAAUUCUCGGGUGCCAA
Oligonucleotide	RBNS enrichment (R)
UGAUCAUUUUAGACACUGGGAGAAGAGAACCUCAAACUAGGAGGAAAAGACAGAGCCUCCACUUAGUUUUGGGAGGGGAUGGCAGACAGUCAAGGAGAUGAGCGUCCUAA	0.795
CAGCCACUUGGCUGGGCAGGGAGAUAGAUAGCUUCUUCCUGCAAGCUUCCAGAAGCACGCUGUGUUCUUUUUGCCAAAUAUGUUCAGUUAUAGUCAGCUGAUAGAUUGAU	0.557
AACCAUUUAAAAUAAUGGAUGGGUUACUAUGAGCAAUUUCGCUUUCAGAACCCCCUUGUUUUAGUAUAUGAAAAAGCCUAAUGCGCAUUAAUGAGGUUGAAGAGACUAUG	0.588
UUGAGUUUGUCACUCCAGUAACUAUUAACACAGAUUUUGUCAUGGCCUAUCAUUUCUUUUACCUUUAACUCAACUCUGAACUGAUUGAAUAAGUGCUAAGCUUAUUCUUU	0.505
UUUUCCCCCACCGCAACCUCCAUCUCCCGGGUUCAAGCAAUUCUCCUGCCUCACCCUCCCAAGUAGCUGGGAUUACAGGUGCCCACCUCCACGCCCAGCUAAUUUUUGUA	0.654
UCCUCCUAGCUUUCCCCACAGAGAAUGUUAGACCAGUAUGGCUUCUUGCCUUGAUCCUGUUGUGGCAGUGUCUGUUCCUGCCCCAGGUGUGCUAUUCACGCAGGUUUAUU	0.651
GGUGAAGGAAGGCAUCCCUUGUGGGGCAUUUCACUUCUUCCCACUCCCCAAAUAAUGUUACACAUGGCAGUACUCAUGUUCCCCUUGAUUCCCAGGGACGUCGCGCCUUG	0.423
AUCUCUGCGCCUUUCUGGGGGCGGGCAAGCUGGCGGUAGAUUUGUGAUGUCACAGUGCAAACUGCAGUGACUGUAAAUUGGCCUGGCGUGUAUAAACGUUUUCAGGGAAU	0.417

Some of these lines once more (set 3):
Modification	mean fluorescence intensity [a.u.]
2'F-ANA at 1 2 4 6 10 11 12 13 14 15	50.6
2'F-ANA at 1 3 4 5 6 8 13	49.3
2'F-ANA at 1 3 6 7 8 11 12	441
2'F-ANA at 1 2 3 6 11 14 15	64.6
2'F-ANA at 1 2 3 4 6 7 8 9 13 15	115
2'F-ANA at 6 9 10 11	137
2'F-ANA at 1 3 5 7 10 11 12 13 15	104
2'F-ANA at 1 4 7 8 9 10 14 15	50
